Results collected from several papers.
Every numbered part comes from another study and shows a few of its results, in no order. Substitutions count along the parent as printed.

Series 1
Target: RING finger protein unkempt homolog, zinc fingers 1-6, SBP tag (UNK, Homo sapiens, UniProt Q9C0B0, residues 30-357)
UniProt Q9C0B0, sequence (30-357, looked up): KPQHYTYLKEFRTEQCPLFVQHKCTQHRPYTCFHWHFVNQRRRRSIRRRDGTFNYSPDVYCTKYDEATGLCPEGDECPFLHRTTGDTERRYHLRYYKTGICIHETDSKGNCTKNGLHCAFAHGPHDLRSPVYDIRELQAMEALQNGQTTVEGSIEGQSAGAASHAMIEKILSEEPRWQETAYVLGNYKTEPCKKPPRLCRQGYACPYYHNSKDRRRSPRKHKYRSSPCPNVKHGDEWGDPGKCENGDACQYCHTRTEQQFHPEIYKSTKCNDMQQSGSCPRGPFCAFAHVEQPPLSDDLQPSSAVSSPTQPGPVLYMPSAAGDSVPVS
Method: RNA Bind-n-Seq
Molecule type: RNA
Sample: in vitro
Concentration: 100 nM
Notes: RNA with constant flanks, vertebrate orthologous sites, ends assumed
Reference: input RNA pool
Reading: higher = stronger binding
Quantity: bound/input enrichment
All sequences stand within: GGGAGUUCUACAGUCCGACGAUC … CAACAGAGGAUUGAGCAUCA
GUGACUUUGGAAGUCCGCAGUGUCUCAUUGCAGAUACUACUUAGCUCAGGGCCUGGUGGCUAGACAAGUUCUCUCCUUUCCAGUCGGAGGCCUGUGUCGCAAACAUGCUCCGCCAUAUGG: 0.461 ratio
UAACUGAGUGCUUAAGCCGCCAACAGUUAUGCUAUUUAUUUGUGUCUGUAAGUUUGUACAUAGUAAUGCCAGCCUUGUUGCUGAAUUUUUUAUUUGGGGGUGGGGGGCUUAGUUUGAAUU: 2.11 ratio
GUGUGUGUGCGUGUGUGUGUGUGGGUUUGGGGGGGGCAAGCAGGCGGAAUCUCUAGGGUGUGUGGUAGUAGGAAGCACAGUUCUAAGUGGGCCUUUAUGUUAAACACCUCUGGUAGUGUC: 0.809 ratio
GUGACUUUGAACGUCCGCUCAUCCUAGGUGUGGAGACUACUGAGUCUCUGGGUGUGAAGGUUUGUUUUGCUUCGCCGGAGCCGAGGCCUCUGCCGCAAUCAUGUUCCGCCAGAUCUUCAC: 0.226 ratio
GUUGUGACCCAUUUAACAUACACAAAAAACUAGCAAAAAAGAAUUUGCAUGUAAUUGACUUAGAUGAUGCCACUUUUCUGAGUGCGAAAUUCGGAAGACAGCUUGUACCUGGUUGGAAGC: 0.985 ratio
AUCCCUCAGUGACAGUAUGCCAUCUGUAGCAGAUUCCCACUCUAGUCAUUUUUCUGAAUUUAGUUGUUCUGACCUAGAAAGCAUGAAAACUUCUUGUAGUCAUGGUUCCAAUGAUUAUCA: 3.22 ratio
CCCACCACUCCUGGGUGCAUGACUGCGGGGGAAGCAUCCACCAGUGCUGCGAGGGGUCUGUGGUAUUGUUUUGCUGCCUCAGUCCCCAGAGCCUUCGAGCAGAAGUGGCAAUACACUGUU: 0.444 ratio
GGUUAAUGUGUUAUUUAUUGAGUAUUGUUUAUGCUAAGCAUUGUGUUAGAUUUAAAAAAUUAGUGGAUUGACUCCACUUUGUUGUGUUGUUUUCAUUGUUGAAAAUAAAUAUAACUUUGU: 0.735 ratio

Series 2
Target: tungstate, free oxyanion
Method: microfluidic competitive inhibition
Sample: in vitro, cell-free expressed
Concentration: not given
Notes: derived from inhibition constants, unchanged parent 2230 nM
Reading: lower = stronger binding
Quantity: oxyanion analog dissociation constant
Starting sequence: PafA, mature enzyme, eGFP fusion (Elizabethkingia meningoseptica, UniProt Q9KJX5); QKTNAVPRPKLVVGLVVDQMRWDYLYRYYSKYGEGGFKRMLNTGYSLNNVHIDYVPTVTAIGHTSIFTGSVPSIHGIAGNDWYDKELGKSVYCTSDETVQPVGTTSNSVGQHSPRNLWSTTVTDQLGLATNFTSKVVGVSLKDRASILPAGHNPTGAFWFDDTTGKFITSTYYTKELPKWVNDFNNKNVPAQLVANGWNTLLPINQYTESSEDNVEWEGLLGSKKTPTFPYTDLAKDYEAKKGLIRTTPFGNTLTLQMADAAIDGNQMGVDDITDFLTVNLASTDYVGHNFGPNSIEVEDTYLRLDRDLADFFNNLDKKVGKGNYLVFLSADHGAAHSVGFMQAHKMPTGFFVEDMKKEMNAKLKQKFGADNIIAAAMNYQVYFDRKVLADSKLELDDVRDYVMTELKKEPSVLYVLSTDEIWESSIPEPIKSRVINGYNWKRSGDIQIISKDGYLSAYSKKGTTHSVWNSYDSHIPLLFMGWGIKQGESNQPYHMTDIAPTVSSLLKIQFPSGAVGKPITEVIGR
G514A: 1.65 µM
V102A: 1.64 µM
D446G: 2.31 µM
M40G: 2.9 µM
D391V: 2.31 µM
Y286G: 1.3 µM
K318G: 1.95 µM

Series 3
Target: TAR DNA-binding protein 43, full length, His tag (TARDBP, Homo sapiens, UniProt Q13148, residues 1-414)
Method: RNA Bind-n-Seq
Molecule type: RNA
Sample: in vitro
Concentration: 20 nM
Notes: 6-mer, flanks averaged, single round
Together with: 150 mM KCl
Reference: input library
Reading: higher = stronger binding
Quantity: 6-mer enrichment (R)
CCGAAU: 0.67
UAUCCU: 0.555
AGAAUU: 0.646
AUAUGU: 0.7
CGUGUG: 1.59
GCGAGG: 3.97
GAGUGU: 1.63
CAUGCA: 0.716

Series 4
Target: UDP-N-acetylglucosamine--peptide N-acetylglucosaminyltransferase 110 kDa subunit (OGT, Homo sapiens, UniProt O15294)
Effect on: phage display binding
Method: phage display panning NGS
Molecule type: peptide
Reference: OGT-panned over input library
Quantity: log2 fold enrichment
Residues (O15294 1-1046): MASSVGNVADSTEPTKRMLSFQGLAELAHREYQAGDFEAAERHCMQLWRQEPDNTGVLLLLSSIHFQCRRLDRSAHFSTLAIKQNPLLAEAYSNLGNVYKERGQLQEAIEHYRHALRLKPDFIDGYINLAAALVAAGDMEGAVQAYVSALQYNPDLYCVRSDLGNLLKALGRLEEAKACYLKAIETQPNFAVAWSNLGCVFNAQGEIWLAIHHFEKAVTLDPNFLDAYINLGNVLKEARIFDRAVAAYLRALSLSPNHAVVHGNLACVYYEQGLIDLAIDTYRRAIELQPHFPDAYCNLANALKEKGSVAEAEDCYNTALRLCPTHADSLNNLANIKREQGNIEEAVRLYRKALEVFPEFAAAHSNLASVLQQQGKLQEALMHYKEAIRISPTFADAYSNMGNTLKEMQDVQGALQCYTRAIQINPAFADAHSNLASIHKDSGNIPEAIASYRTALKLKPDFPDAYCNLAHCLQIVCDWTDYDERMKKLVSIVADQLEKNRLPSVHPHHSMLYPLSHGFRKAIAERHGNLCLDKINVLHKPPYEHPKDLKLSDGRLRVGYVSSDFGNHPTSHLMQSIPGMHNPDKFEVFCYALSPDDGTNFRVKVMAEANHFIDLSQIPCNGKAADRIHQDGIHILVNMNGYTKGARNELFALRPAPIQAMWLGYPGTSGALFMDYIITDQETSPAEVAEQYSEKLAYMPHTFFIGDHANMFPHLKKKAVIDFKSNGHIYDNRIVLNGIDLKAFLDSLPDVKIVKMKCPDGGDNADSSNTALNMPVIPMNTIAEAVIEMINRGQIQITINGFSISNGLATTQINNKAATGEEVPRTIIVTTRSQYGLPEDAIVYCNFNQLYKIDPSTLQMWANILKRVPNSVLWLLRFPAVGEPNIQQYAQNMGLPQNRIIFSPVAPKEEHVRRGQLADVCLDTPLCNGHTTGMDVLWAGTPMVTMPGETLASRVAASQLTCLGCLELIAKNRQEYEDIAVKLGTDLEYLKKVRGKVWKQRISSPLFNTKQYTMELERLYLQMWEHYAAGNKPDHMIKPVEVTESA
TPFLPMYQIPMDVHN: 3.99
QYQHRSYMPFYQIAT: 6.11
TQWRMDHKHHQMHRI: 6.03
NYYGQHHHVLQHGDE: 2.61
HYDHNQWIHSSFHDH: 2.33
VHRNSHHSEHHRDFE: 2.62
QLKHTIHHHHTAPRY: 2.94
DDITFPPQYMMTVHR: 1.99
DDWRPLYQIIYTSQD: 6.11
HSYHHDSVHAGHNIV: 2.26
FDHRDYHHYEQFHH: 3.15
SIPEVFFAPVYQIET: 3.07
TWFQHPSNPSHINQS: 2.56
ETNQYLPTYQIMYQF: 6.05
QMDGMFPPKYQINSF: 3.58
YGEGYITRHTTYHQH: 2.22
HSDHSHQNHHPPHIR: 3.09

Repeated from above (series 1):
GUGUGUGUGCGUGUGUGUGUGUGGGUUUGGGGGGGGCAAGCAGGCGGAAUCUCUAGGGUGUGUGGUAGUAGGAAGCACAGUUCUAAGUGGGCCUUUAUGUUAAACACCUCUGGUAGUGUC: 0.809 ratio
GUGACUUUGAACGUCCGCUCAUCCUAGGUGUGGAGACUACUGAGUCUCUGGGUGUGAAGGUUUGUUUUGCUUCGCCGGAGCCGAGGCCUCUGCCGCAAUCAUGUUCCGCCAGAUCUUCAC: 0.226 ratio
GGUUAAUGUGUUAUUUAUUGAGUAUUGUUUAUGCUAAGCAUUGUGUUAGAUUUAAAAAAUUAGUGGAUUGACUCCACUUUGUUGUGUUGUUUUCAUUGUUGAAAAUAAAUAUAACUUUGU: 0.735 ratio
GUGACUUUGGAAGUCCGCAGUGUCUCAUUGCAGAUACUACUUAGCUCAGGGCCUGGUGGCUAGACAAGUUCUCUCCUUUCCAGUCGGAGGCCUGUGUCGCAAACAUGCUCCGCCAUAUGG: 0.461 ratio
AUCCCUCAGUGACAGUAUGCCAUCUGUAGCAGAUUCCCACUCUAGUCAUUUUUCUGAAUUUAGUUGUUCUGACCUAGAAAGCAUGAAAACUUCUUGUAGUCAUGGUUCCAAUGAUUAUCA: 3.22 ratio
